Experimental data pooled from the literature.
Protocols differ between the studies behind these lines. ± marks the error that the study gave.
Dipeptidyl peptidase 8: Dipeptidyl peptidase 8 (Homo sapiens, UniProt Q6V1X1)
Chain of UniProt Q6V1X1 (whole entry, looked up): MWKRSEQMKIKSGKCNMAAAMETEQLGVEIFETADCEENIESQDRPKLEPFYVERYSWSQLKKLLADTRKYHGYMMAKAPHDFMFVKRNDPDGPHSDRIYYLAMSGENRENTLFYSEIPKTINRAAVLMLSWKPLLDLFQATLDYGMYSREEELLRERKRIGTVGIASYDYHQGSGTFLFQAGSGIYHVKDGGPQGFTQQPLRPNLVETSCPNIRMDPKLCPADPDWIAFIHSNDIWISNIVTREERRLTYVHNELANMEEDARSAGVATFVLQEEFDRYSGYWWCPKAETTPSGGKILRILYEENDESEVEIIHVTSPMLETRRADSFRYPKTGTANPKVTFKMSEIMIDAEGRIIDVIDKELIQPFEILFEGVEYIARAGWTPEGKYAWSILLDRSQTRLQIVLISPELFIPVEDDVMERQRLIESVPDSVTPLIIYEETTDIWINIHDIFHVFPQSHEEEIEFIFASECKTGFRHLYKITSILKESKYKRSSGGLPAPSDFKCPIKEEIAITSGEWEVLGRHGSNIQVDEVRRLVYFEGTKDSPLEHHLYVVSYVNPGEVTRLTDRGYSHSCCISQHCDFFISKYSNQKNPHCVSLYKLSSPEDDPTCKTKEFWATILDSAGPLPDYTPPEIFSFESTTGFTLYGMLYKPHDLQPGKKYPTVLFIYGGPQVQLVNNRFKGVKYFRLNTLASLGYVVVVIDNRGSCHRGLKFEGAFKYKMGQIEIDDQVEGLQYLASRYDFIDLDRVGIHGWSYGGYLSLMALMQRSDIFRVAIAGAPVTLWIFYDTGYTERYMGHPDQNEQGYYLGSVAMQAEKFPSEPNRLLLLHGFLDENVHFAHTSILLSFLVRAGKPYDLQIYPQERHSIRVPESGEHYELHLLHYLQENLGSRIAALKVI
Urease: Urease (Canavalia ensiformis, UniProt P07374)
Chain of UniProt P07374 (whole entry, looked up): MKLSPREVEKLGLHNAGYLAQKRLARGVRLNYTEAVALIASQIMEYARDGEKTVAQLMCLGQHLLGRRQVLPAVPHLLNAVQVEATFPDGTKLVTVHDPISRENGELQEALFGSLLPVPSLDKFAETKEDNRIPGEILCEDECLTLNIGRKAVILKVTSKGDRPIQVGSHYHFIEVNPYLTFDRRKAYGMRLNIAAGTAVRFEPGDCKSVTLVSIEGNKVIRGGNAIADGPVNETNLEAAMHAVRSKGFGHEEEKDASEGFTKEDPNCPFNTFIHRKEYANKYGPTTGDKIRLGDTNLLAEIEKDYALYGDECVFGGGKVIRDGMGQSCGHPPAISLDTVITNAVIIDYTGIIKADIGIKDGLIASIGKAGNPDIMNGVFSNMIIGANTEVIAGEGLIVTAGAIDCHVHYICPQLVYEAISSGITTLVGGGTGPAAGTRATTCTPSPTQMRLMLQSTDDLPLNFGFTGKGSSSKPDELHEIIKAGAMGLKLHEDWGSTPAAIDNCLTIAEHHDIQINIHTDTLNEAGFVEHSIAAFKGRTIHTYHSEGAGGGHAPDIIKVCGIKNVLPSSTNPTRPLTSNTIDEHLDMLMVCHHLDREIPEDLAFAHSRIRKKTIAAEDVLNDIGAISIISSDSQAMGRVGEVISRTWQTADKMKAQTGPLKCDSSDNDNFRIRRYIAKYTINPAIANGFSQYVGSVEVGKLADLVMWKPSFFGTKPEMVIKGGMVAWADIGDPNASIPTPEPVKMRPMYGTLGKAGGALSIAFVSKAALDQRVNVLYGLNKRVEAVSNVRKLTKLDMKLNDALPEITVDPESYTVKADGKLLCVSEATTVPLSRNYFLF
Cnr2: Cannabinoid receptor 2 (Cnr2, Mus musculus, UniProt P47936)
Chain of UniProt P47936 (whole entry, looked up): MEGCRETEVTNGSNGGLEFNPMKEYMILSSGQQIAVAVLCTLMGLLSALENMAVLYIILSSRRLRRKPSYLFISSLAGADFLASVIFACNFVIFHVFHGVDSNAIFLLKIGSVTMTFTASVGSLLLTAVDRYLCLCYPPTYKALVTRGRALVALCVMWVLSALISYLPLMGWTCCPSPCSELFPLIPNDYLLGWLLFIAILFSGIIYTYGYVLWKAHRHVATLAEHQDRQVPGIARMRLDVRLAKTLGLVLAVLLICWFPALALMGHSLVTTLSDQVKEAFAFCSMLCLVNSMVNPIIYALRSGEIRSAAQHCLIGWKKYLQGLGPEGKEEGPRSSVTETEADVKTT
POLB: DNA polymerase beta (POLB, Homo sapiens, UniProt P06746)
CA1: Carbonic anhydrase 1 (CA1, Homo sapiens, UniProt P00915)
Chain of UniProt P00915 (whole entry, looked up): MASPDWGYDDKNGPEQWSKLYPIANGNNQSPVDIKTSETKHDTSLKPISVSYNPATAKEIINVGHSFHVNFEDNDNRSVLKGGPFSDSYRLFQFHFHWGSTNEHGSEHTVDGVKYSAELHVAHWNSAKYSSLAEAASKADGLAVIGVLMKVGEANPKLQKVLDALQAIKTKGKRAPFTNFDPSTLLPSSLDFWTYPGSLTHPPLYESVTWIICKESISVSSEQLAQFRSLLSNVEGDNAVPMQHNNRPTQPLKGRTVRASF
HTR1A: 5-hydroxytryptamine receptor 1A (HTR1A, Homo sapiens, UniProt P08908)
Chain of UniProt P08908 (whole entry, looked up): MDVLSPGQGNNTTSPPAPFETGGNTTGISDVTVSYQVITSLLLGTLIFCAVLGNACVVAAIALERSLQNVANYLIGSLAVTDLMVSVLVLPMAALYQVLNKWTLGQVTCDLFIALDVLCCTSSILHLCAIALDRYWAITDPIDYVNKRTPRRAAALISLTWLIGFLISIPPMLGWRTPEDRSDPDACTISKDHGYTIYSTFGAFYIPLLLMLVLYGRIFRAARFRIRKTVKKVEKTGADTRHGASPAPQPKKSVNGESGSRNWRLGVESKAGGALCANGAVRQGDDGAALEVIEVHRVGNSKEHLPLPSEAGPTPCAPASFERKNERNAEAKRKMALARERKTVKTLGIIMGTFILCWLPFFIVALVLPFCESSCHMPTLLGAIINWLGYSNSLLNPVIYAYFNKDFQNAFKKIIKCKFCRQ
Chain of UniProt Q92847 (whole entry, looked up): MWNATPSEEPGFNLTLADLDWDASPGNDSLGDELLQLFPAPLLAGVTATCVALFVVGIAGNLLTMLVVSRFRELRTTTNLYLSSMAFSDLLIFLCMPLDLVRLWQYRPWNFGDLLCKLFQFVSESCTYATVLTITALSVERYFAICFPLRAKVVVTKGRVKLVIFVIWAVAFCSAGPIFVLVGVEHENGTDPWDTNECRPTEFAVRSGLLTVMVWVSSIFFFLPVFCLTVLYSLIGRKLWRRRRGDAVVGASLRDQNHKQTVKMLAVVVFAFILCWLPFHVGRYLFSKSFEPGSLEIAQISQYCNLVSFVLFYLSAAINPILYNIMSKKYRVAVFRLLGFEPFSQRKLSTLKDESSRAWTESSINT
Chain of UniProt P11086 (whole entry, looked up): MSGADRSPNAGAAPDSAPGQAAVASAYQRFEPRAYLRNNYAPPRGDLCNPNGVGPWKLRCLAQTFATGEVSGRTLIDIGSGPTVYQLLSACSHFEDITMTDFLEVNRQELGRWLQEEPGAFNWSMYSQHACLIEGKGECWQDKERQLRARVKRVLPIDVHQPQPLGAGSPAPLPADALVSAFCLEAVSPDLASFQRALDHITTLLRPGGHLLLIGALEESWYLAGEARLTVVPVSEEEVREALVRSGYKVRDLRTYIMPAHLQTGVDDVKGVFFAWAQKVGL
Chain of UniProt P45983 (whole entry, looked up): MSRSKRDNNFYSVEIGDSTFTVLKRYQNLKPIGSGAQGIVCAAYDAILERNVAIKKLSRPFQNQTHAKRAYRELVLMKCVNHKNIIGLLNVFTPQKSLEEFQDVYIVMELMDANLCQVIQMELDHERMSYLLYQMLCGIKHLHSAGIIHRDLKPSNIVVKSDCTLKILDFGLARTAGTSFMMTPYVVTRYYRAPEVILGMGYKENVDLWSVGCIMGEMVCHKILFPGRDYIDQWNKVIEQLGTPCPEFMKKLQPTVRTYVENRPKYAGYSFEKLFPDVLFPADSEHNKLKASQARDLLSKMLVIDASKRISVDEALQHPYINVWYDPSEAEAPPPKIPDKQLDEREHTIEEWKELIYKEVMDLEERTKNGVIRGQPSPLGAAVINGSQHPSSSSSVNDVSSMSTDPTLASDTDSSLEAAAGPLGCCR

CCCC1(C)C(=O)N(c2cccc(CN3CCN(Cc4ccc(Br)cc4)CC3)c2)C1=O
Ki (Dipeptidyl peptidase 8; enzyme activity, inhibitor, fluorescence): 315 nM

Brc1cccc(-c2cc(CN3c4ccccc4C=Cc4ccccc43)on2)c1
Ki (Urease; enzyme activity, inhibitor): 4050 nM

CCCCn1c(SCC(N)=O)nc2c1c(=O)[nH]c(=O)n2C
Ki (Aminoglycoside phosphotransferase APH(2'')-IVa (Enterococcus casseliflavus, UniProt O68183); enzyme activity, inhibitor, quench-flow HPLC kinetics; with: 400 µM ATP, 100 µM gentamicin): 16000 ± 14000 nM

CCOC(=O)[C@](CC)(CCCSCCOCCOCCNC(=O)OC(C)(C)C)NC(=O)c1ccc(C2CC2)c(Cc2ccc(F)cc2)n1
Ki (Cnr2; ligand displacement, radioligand; cell membranes): 64 nM

N#Cc1ccccc1-c1cc(CN2c3ccccc3C=Cc3ccccc32)on1
Ki (Urease; enzyme activity, inhibitor): 13400 nM

O=C(NCCOP(=O)(O)OP(=O)(O)OP(=O)(O)O)OCC1c2ccccc2-c2ccccc21
Ki (POLB; DNA polymerase activity, inhibitor; with: 1 mM Mn2+, poly(dA)/oligo(dT)): 10000 nM

CCCCC1(CC)C(=O)N(c2cccc(CN3CCN(Cc4ccc(Br)cc4)CC3)c2)C1=O
Ki (Dipeptidyl peptidase 8; enzyme activity, inhibitor, fluorescence): 1310 nM

CCCCCCCCCCCC(=O)NC1CCOC1=O (stereo not drawn)
Ki (CA1; enzyme activity, inhibitor, stopped-flow): 82000 nM

CCC1(CC)C(=O)N(c2cccc(C(=O)N3CCN(Cc4ccc(Br)cc4)CC3)c2)C1=O
Ki (Dipeptidyl peptidase 8; enzyme activity, inhibitor, fluorescence): 9.5 nM

Cc1c(Cl)c(=O)oc2cc(OCCCCCCSC#N)ccc12
Ki (CA1; enzyme activity, inhibitor, stopped-flow): > 100000 nM

CCOC(=O)C(CC)(CCCSCCOCCOCCOCCN)NC(=O)c1ccc(C2CC2)c(Cc2ccc(F)cc2)n1 (stereo not drawn)
Ki (Cnr2; ligand displacement, radioligand; cell membranes): 2.8 nM

Cc1cc(NC(=O)c2cccc(NC(=O)/C(C#N)=C/C(C)(C)C)c2)ccc1Nc1nccc(-c2cccnc2)n1
Ki (MAPK8 (Homo sapiens, UniProt P45983); SPR two-step binding model; wild-type protein surface): 20.6 nM

CCC1(CC)C(=O)N(c2cccc(CN3CCN(Cc4ccc(Br)c5ccccc45)CC3)c2)C1=O
Ki (Dipeptidyl peptidase 8; enzyme activity, inhibitor, fluorescence): 159 nM

Cn1ccc2c(N3CCN(CCCCOc4ccc5c(c4)NC(=O)CC5)CC3)cccc21
Ki (HTR1A; ligand displacement, radioligand): 63 nM

CCOC(=O)[C@](CC)(CCCSCCOCCOCCNC(=O)CCCCCN1C(=CC=CC=CC2=[N+](C)c3ccc4ccccc4c3C2(C)C)C(C)(C)c2c1ccc1ccccc21)NC(=O)c1ccc(C2CC2)c(Cc2ccc(F)cc2)n1
Ki (Cnr2; ligand displacement, radioligand; cell membranes): 50 nM

COc1ccc(C(=O)c2c(C(=O)NCCCN(C)C)oc3ccc(Cl)cc3c2=O)cc1OC
Ki (GHSR (Homo sapiens, UniProt Q92847); ligand displacement, radioligand; cell membranes): 762 nM

CCOC(=O)[C@@](CC)(CCCSCCOCCOCCN)NC(=O)c1ccc(C2CC2)c(Cc2ccc(F)cc2)n1
Ki (Cnr2; ligand displacement, radioligand; cell membranes): 13 nM

CCOc1ccc(-c2cc(CN3c4ccccc4C=Cc4ccccc43)on2)cc1
Ki (Urease; enzyme activity, inhibitor): 2010 nM

CCOC(=O)C(CC)(CCCSCCCCCCNC(=O)OC(C)(C)C)NC(=O)c1ccc(C2CC2)c(Cc2ccc(F)cc2)n1 (stereo not drawn)
Ki (Cnr2; ligand displacement, radioligand; cell membranes): 367 nM

Cc1cccc(-c2cc(CN3c4ccccc4C=Cc4ccccc43)on2)c1
Ki (Urease; enzyme activity, inhibitor): 6350 nM

CCOC(=O)C(CC)(CCCSCCOCCOCCOCCNc1ccc([N+](=O)[O-])c2nonc12)NC(=O)c1ccc(C2CC2)c(Cc2ccc(F)cc2)n1 (stereo not drawn)
Ki (Cnr2; ligand displacement, radioligand; cell membranes): 85 nM

Cc1ccccc1-c1cc(CN2c3ccccc3C=Cc3ccccc32)on1
Ki (Urease; enzyme activity, inhibitor): 6590 nM

CCC1(CC)C(=O)N(c2cc(C(=O)OC)cc(C(=O)N3CCN(Cc4ccc(Br)cc4)CC3)c2)C1=O
Ki (Dipeptidyl peptidase 8; enzyme activity, inhibitor, fluorescence): 30 nM

CCOc1cc(-c2cc(CN3c4ccccc4C=Cc4ccccc43)on2)ccc1Cl
Ki (Urease; enzyme activity, inhibitor): 24400 nM

CCC1(CC)C(=O)N(c2cccc(CN3CCN(Cc4ccc(C)c5ccccc45)CC3)c2)C1=O
Ki (Dipeptidyl peptidase 8; enzyme activity, inhibitor, fluorescence): 306 nM

CSCc1cn(-c2cccc(C(=O)N3CCC(c4nc(-c5ccccc5)n[nH]4)CC3)c2)nn1
Ki (FSP1, ancestral; NADH oxidase activity, inhibitor; pH 7.2, with: varying NADH, no coenzyme Q1): no inhibition

CCc1c(Cl)cccc1N1CCN(C[C@H](F)CCNC(=O)c2cc3ccccc3[nH]2)CC1
Ki (HTR1A; ligand displacement, radioligand; cell membranes): 2860 nM

Nc1ncnc2c1ncn2C1OC(CN(CCCC2CNCc3c2ccc(Cl)c3Cl)CCC(N)C(=O)O)C(O)C1O (mixture of isomers)
Ki (PNMT (Homo sapiens, UniProt P11086); enzyme activity, inhibitor, radiolabel; pH 8.0, with: [3H-methyl]SAM): 12 nM

CCCCCCC1CCCC(=O)O1 (stereo not drawn)
Ki (CA1; enzyme activity, inhibitor, stopped-flow): 58600 nM

CCOC(=O)C(CC)(CCCSCCOCCNc1ccc([N+](=O)[O-])c2nonc12)NC(=O)c1ccc(C2CC2)c(Cc2ccc(F)cc2)n1 (stereo not drawn)
Ki (Cnr2; ligand displacement, radioligand; cell membranes): 59 nM

N#CSCCCCCCOc1ccc2c(-c3ccccc3)cc(=O)oc2c1
Ki (CA1; enzyme activity, inhibitor, stopped-flow): > 100000 nM

O=C(NCCCOP(=O)(O)OP(=O)(O)OP(=O)(O)O)OCC1c2ccccc2-c2ccccc21
Ki (POLB; enzyme activity, inhibitor, radiometric): 63000 nM

CCCCCCC(=O)N[C@H]1CCOC1=O
Ki (CA1; enzyme activity, inhibitor, stopped-flow): 77100 nM

Some of these lines once more:
CCOC(=O)C(CC)(CCCSCCOCCNc1ccc([N+](=O)[O-])c2nonc12)NC(=O)c1ccc(C2CC2)c(Cc2ccc(F)cc2)n1 (stereo not drawn)
Ki (Cnr2; ligand displacement, radioligand; cell membranes): 59 nM

O=C(NCCOP(=O)(O)OP(=O)(O)OP(=O)(O)O)OCC1c2ccccc2-c2ccccc21
Ki (POLB; DNA polymerase activity, inhibitor; with: 1 mM Mn2+, poly(dA)/oligo(dT)): 10000 nM

Cc1ccccc1-c1cc(CN2c3ccccc3C=Cc3ccccc32)on1
Ki (Urease; enzyme activity, inhibitor): 6590 nM

CCOC(=O)C(CC)(CCCSCCOCCOCCOCCN)NC(=O)c1ccc(C2CC2)c(Cc2ccc(F)cc2)n1 (stereo not drawn)
Ki (Cnr2; ligand displacement, radioligand; cell membranes): 2.8 nM

Cc1cccc(-c2cc(CN3c4ccccc4C=Cc4ccccc43)on2)c1
Ki (Urease; enzyme activity, inhibitor): 6350 nM
